# Experimental data of several laboratories.
# A part holds a random share of what one study measured. Substitutions count along the parent as printed.

# Series 1
# Target: Prothrombin, mature alpha-thrombin (F2, Homo sapiens, UniProt P00734)
# Technique: aptamer microarray, sandwich
# Molecule type: DNA with 2'F-ANA
# Medium: in vitro
# Concentration: 200 nM
# Notes: whole 15-mer aptamer, many near background
# With: Cy3 exosite-II aptamer, 400 nM
# Direction: higher = stronger binding
# Strand: GGTTGGTGTGGTTGG
Modification,mean fluorescence intensity [a.u.]
2'F-ANA at 1 3 4 5 6 7 11 12 13 14 15,46.5
2'F-ANA at 2 3 4 7 8 9 10 11 12 13 14 15,161
2'F-ANA at 1 2 6 8 9 14 15,57.8
2'F-ANA at 1 8 9 10 11 12 14 15,51.1
2'F-ANA at 1 2 4 6 7 9 11 12 14,51.7
2'F-ANA at 2 4 9 13,216
2'F-ANA at 1 2 3 4 5 7 8 9 11 13,55.3
2'F-ANA at 3 4 6 8 9 13 15,395
2'F-ANA at 2 3 4 5 7 10 11 13 15,48.5
2'F-ANA at 2 4 5 7 8 12 13 15,99.7
2'F-ANA at 6 12 14,226
2'F-ANA at 2 4 9 13 15,187
2'F-ANA at 7 9 14 15,228
2'F-ANA at 1 2 4 6 8 9 10 12 14 15,159
2'F-ANA at 1 8 10 11 13 14,51
2'F-ANA at 1 2 3 4 7 8 11 12 14,96.7
2'F-ANA at 4 10 11 12 13,94.2
2'F-ANA at 1 4 6 7 9 11 12 14,52.8

# Series 2
# Target: Histone acetyltransferase KAT6A, winged helix 2, GST fusion (KAT6A, Homo sapiens, UniProt Q92794, residues 85-181)
# Technique: protein binding microarray
# Molecule type: double-stranded DNA, one strand shown
# Medium: in vitro
# Concentration: not given
# Notes: 8-mer, flanks averaged, mean of 2 arrays, mostly near background
# Reference: not given
# Direction: higher = stronger binding
# Residues (chain): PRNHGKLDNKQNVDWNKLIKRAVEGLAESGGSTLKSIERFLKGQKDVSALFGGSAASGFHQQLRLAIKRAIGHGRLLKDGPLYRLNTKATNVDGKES
Strand,E-score
AAGAAGGA,-0.0612
GTGTCATA,-0.0402
CTGAAGTA,0.0614
CGAATGCG,0.0491
CCAGTACG,-0.162
CGCCGTAC,0.0192
CATAGGCA,-0.00967
AGGCAGCC,0.0284
AACGTTCA,-0.384
CATTTATA,0.0332

# Series 3
# Target: CCNB2, cyclin fold, Cln2 fusion (human)
# Technique: yeast growth competition, sequencing
# Medium: yeast
# Notes: strong parent motif
# Reference: not given
# Direction: higher = stronger binding
# Parent: BRCA2 docking peptide (human); PSIKRNLLNEFDR; partner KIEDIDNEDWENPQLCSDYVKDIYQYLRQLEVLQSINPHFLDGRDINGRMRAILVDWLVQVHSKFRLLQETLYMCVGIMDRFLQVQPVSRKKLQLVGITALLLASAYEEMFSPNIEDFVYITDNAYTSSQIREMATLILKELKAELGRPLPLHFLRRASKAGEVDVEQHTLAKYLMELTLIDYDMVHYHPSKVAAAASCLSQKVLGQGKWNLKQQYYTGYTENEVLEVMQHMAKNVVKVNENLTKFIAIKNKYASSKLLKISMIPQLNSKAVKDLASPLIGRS
Variant,normalised enrichment score
P1M,3.09
N9K,3.73
R5E,-0.163
N6C,1.39
S2P,3.5
D12C,3
K4Y,1.29
I3T,0.928
L7K,0.246
L8Q,1.77
F11L,1.37
F11D,0.15
L7W,-0.0952
R5G,-0.104
R5I,2.05

# Further values, each from its own experiment
Molecule,target,assay,test system,conditions,scale,quantity,value
"PhoQ, residues 284 288 289 292 302 303 AQGLTV","PhoP, residues 12 14 15 18 19 IQFRS (Escherichia coli, UniProt P23836)","Sort-seq, refers to: YFP reporter",E. coli,"PhoQ-PhoP variant library, with: 10 µM Mg2+","reference: high Mg2+ state, higher = stronger signaling",fold induction,2.85
